Results gathered from unrelated publications.
± gives the spread as reported.

Compound | test | system | conditions | how to read | quantity | result
COc1ncccc1-c1cnn2ccc(N3CCN(C(=O)OC(C)C)CC3)nc12 | – | rat CCI model, plasma | oral, 3 mg/kg, 210 min | – | free concentration | 10 nM
O=S(=O)(Nc1ccccc1)c1ccc(NC(=S)Nc2ccccc2)cc1 | – | male mouse, blood | oral, 20 mg/kg daily, 14 days | – | albumin level | 3 g/dL
C[C@@H](O)[C@@H]1NC(=O)[C@H](CCCCN)NC(=O)[C@@H](Cc2c[nH]c3ccccc23)NC(=O)[C@H](Cc2ccccc2)NC(=O)[C@@H](NC(=O)[C@H](N)Cc2ccccc2)CSSC[C@@H](C(=O)N[C@H](CO)[C@@H](C)O)NC1=O | population PK model | healthy and acromegaly subjects, plasma | subcutaneous, typical 75 kg subject | – | clearance | 160 mL/min
C=C(CN(C(=O)c1c(C(F)F)nn(C)c1F)C1CC1)c1ccc(Cl)cc1Cl | static acute toxicity test | zebrafish (Brachydanio rerio) | 0.578 mg a.i./L, 96 h | – | mortality | 0%
C[C@@H]1NC(=O)[C@H](CCCCNC(=O)CO/N=C/C(=O)NCCCC[C@@H]2NC(=O)[C@@H](Cc3ccccc3)NC(=O)[C@H](CC(=O)O)NC(=O)CNC(=O)[C@H](CCCNC(=N)N)NC2=O)NC(=O)CNC(=O)[C@@H]2CCCN2C(=O)[C@H](CCCCNC(=O)CO/N=C/C(=O)NCCCC[C@@H]2NC(=O)[C@@H](Cc3ccccc3)NC(=O)[C@H](CC(=O)O)NC(=O)CNC(=O)[C@H](CCCNC(=N)N)NC2=O)NC(=O)[C@H](CCCCNC(=O)CCNC(=O)CCNC(=O)CCNC(=O)[C@H](CCCCN)NC(=O)[C@H](Cc2ccccc2)NC(=O)CNC(=O)CN2CCCNCCNCCCNCC2)NC(=O)[C@H](CCCCNC(=O)CO/N=C/C(=O)NCCCC[C@@H]2NC(=O)[C@@H](Cc3ccccc3)NC(=O)[C@H](CC(=O)O)NC(=O)CNC(=O)[C@H](CCCNC(=N)N)NC2=O)NC(=O)CNC(=O)[C@@H]2CCCN2C(=O)[C@H](CCCCNC(=O)CO/N=C/C(=O)NCCCC[C@@H]2NC(=O)[C@@H](Cc3ccccc3)NC(=O)[C@H](CC(=O)O)NC(=O)CNC(=O)[C@H](CCCNC(=N)N)NC2=O)NC1=O [copper-64 labelled] | – | normal mice, kidney | intravenous, 0.74 MBq, 3 h post-injection | – | tissue uptake | 47.7 ± 2.48 %ID/g
O=C(Nc1cccc(B(O)O)c1)c1cccc(OCc2ccccc2)c1 | PAMPA | pre-coated trilayer membrane | 200 µM, 5 h, pH 7.4, acceptor plate, PBS | – | acceptor concentration | 0.35 ± 0.07 µM
COc1cc2c(Oc3ccc4[nH]c(C)cc4c3F)ccnc2cc1OCC1(N)CC1 | – | paediatric recurrent refractory sarcoma | 8 mg/kg | – | grade 3 Tinnitus | 0%
CC(C)[C@@H]1NC(=O)CNC(=O)[C@H](CC(N)=O)NC(=O)[C@H](CCCNC(=N)N)NC(=O)[C@H](Cc2ccc(O)cc2)NC(=O)[C@H](C(C)C)NC(=O)[C@@H](NC(=O)[C@@H](NC(=O)[C@H](CC(N)=O)NC(=O)[C@H](Cc2c[nH]c3ccccc23)NC(=O)[C@H](C)NC(=O)[C@H](Cc2ccccc2)NC(=O)CN)C(C)C)CSSC[C@@H](C(=O)N[C@@H](Cc2cnc[nH]2)C(=O)N[C@@H](CCCNC(=N)N)C(=O)N[C@@H](CCCNC(=N)N)C(=O)N[C@@H](C)C(=O)N[C@@H](CC(N)=O)C(N)=O)NC(=O)[C@H](C(C)C)NC(=O)[C@H](CCCNC(=N)N)NC1=O | – | ICR mice, blood | intraperitoneal, 10 mg/kg, day 5 | – | monocytes | 3.09 ± 0.35%
CC(C)(c1ccc(O)cc1)c1ccc(O)cc1 | ultrafiltration | cow milk whey | 200 nM nominal in whole milk | – | dose fraction in permeate | 18.9%
Cc1ncnc2c1ccn2[C@@H]1C[C@H](Oc2cc(C(F)F)c(F)c3c2CNCC3)[C@@H](O)[C@H]1O | – | patients | dose not given, grade ≥3 | baseline: patients | Dysgeusia incidence | 0%
CCNCCCNC/C=C\CNCCCNCC | – | human, advanced solid tumours | intravenous, dose not given | baseline: patients | drug-related TEAE, metabolism disorders | 26.1%
C=CC(=O)N1CCC(CNc2ncnc(N)c2-c2ccc(Oc3ccccc3)cc2)CC1 | – | dog | GLP pivotal toxicology | – | NOAEL | 250 mg/kg
Cn1nc(NS(C)(=O)=O)c2c(Cl)ccc(-n3c([C@H](Cc4cc(F)cc(F)c4)NC(=O)Cn4nc(C(F)F)c5c4C(F)(F)[C@@H]4C[C@H]54)nc4nc(OCCC(F)(F)F)ccc4c3=O)c21 | refers to: total bile acids increased | human | 625 mg, powder in bottle | – | drug-related adverse events | 0%
CN(C)CCCN1c2ccccc2Sc2ccc(Cl)cc21 | – | human hepatocytes | concentration not given | – | hepatocyte binding | 99%

Repeated from above:
Compound | test | system | conditions | how to read | quantity | result
C=C(CN(C(=O)c1c(C(F)F)nn(C)c1F)C1CC1)c1ccc(Cl)cc1Cl | static acute toxicity test | zebrafish (Brachydanio rerio) | 0.578 mg a.i./L, 96 h | – | mortality | 0%
C[C@@H]1NC(=O)[C@H](CCCCNC(=O)CO/N=C/C(=O)NCCCC[C@@H]2NC(=O)[C@@H](Cc3ccccc3)NC(=O)[C@H](CC(=O)O)NC(=O)CNC(=O)[C@H](CCCNC(=N)N)NC2=O)NC(=O)CNC(=O)[C@@H]2CCCN2C(=O)[C@H](CCCCNC(=O)CO/N=C/C(=O)NCCCC[C@@H]2NC(=O)[C@@H](Cc3ccccc3)NC(=O)[C@H](CC(=O)O)NC(=O)CNC(=O)[C@H](CCCNC(=N)N)NC2=O)NC(=O)[C@H](CCCCNC(=O)CCNC(=O)CCNC(=O)CCNC(=O)[C@H](CCCCN)NC(=O)[C@H](Cc2ccccc2)NC(=O)CNC(=O)CN2CCCNCCNCCCNCC2)NC(=O)[C@H](CCCCNC(=O)CO/N=C/C(=O)NCCCC[C@@H]2NC(=O)[C@@H](Cc3ccccc3)NC(=O)[C@H](CC(=O)O)NC(=O)CNC(=O)[C@H](CCCNC(=N)N)NC2=O)NC(=O)CNC(=O)[C@@H]2CCCN2C(=O)[C@H](CCCCNC(=O)CO/N=C/C(=O)NCCCC[C@@H]2NC(=O)[C@@H](Cc3ccccc3)NC(=O)[C@H](CC(=O)O)NC(=O)CNC(=O)[C@H](CCCNC(=N)N)NC2=O)NC1=O [copper-64 labelled] | – | normal mice, kidney | intravenous, 0.74 MBq, 3 h post-injection | – | tissue uptake | 47.7 ± 2.48 %ID/g
